{"data": "Measured values collected from several papers", "target": "Kappa-type opioid receptor (OPRK1, Homo sapiens, UniProt P41145)", "note": "Compare with care: the assays were run in different laboratories."}
{"SMILES": "Cl.O=C(N[C@H]1CC[C@@]2(O)[C@H]3Cc4ccc(O)c5c4[C@@]2(CCN3CC2CC2)[C@H]1O5)c1ccc([N+](=O)[O-])s1", "test": "radioligand binding", "test system": "CHO membranes", "scale": "reference: Ki µ over Ki κ", "quantity": "selectivity ratio", "value": 2.11}
{"SMILES": "C/C=C1/CN2CC[C@]34C(=C(C(=O)OC)[C@H]1C[C@H]23)Nc1ccc(I)cc14", "test": "radioligand binding", "test system": "CHO cell membranes", "conditions": "added: [3H]diprenorphine", "scale": "reference: KOR over MOR", "quantity": "selectivity ratio", "value": "164 fold"}
{"SMILES": "Cl.O=C(N[C@H]1CC[C@@]2(O)[C@H]3Cc4ccc(O)c5c4[C@@]2(CCN3CC2CC2)[C@H]1O5)c1ccc(F)s1", "test": "radioligand binding", "test system": "CHO membranes", "scale": "reference: Ki µ over Ki κ", "quantity": "selectivity ratio", "value": 7.59}
{"SMILES": "C/C=C1/C[N+]2(CC3CC3)CC[C@]34C(=C(C(=O)OC)[C@H]1C[C@@H]32)Nc1ccccc14.[Br-] (stereo partly shown)", "test": "cAMP inhibition, agonist", "test system": "CHO-K1", "scale": "reference: relative to 1", "quantity": "EC50 fold decrease", "value": "~4 fold"}
{"SMILES": "O=C(Nc1cnccc1Cl)N1CCN(Cc2ccc3c(c2)OC(F)(F)O3)CC1", "test": "radioligand binding, inhibitor", "conditions": "10 µM, human, added: [3H]diprenorphine", "quantity": "inhibition", "value": "4%"}
{"SMILES": "Cn1cccc1-c1cccnc1", "test": "binding", "conditions": "50 µM", "quantity": "inhibition", "value": "-7.64%"}
{"SMILES": "Brc1ccc2c(c1)C(c1ccccn1)=NCc1c(-c3cnco3)ncn1-2", "test": "radioligand binding", "test system": "rat", "conditions": "added: [3H]U69593", "scale": "reference: KOR over benzodiazepine site", "quantity": "selectivity ratio", "value": "14 fold"}
{"SMILES": "CN[C@@]1(c2ccccc2Cl)CCCCC1=O", "test": "radioligand binding, agonist, radioligand displacement", "conditions": "30 µM", "quantity": "inhibition", "value": "22%"}
{"SMILES": "CN(C)C1(CNC(=O)c2ccc3c(c2)CCN3C(=O)c2ccccc2)CCOCC1", "conditions": "10 µM", "quantity": "inhibition", "value": "> 50%"}
{"SMILES": "CS(=O)(=O)c1ccc(C(=O)N[C@H]2CC[C@@]3(O)[C@H]4Cc5ccc(O)c6c5[C@@]3(CCN4CC3CC3)[C@H]2O6)s1.Cl", "test": "radioligand binding", "test system": "CHO membranes", "scale": "reference: Ki µ over Ki κ", "quantity": "selectivity ratio", "value": 4.6}
{"SMILES": "O=C(Nc1cccnn1)N1CCC(=Cc2cccc(Oc3ccc(C(F)(F)F)cn3)c2)CC1", "test": "radioligand binding, inhibitor", "conditions": "50 µM, human, added: [3H]diprenorphine", "quantity": "inhibition", "value": "94%"}
{"SMILES": "Cl.NS(=O)(=O)c1ccc(C(=O)N[C@H]2CC[C@@]3(O)[C@H]4Cc5ccc(O)c6c5[C@@]3(CCN4CC3CC3)[C@H]2O6)s1", "test": "radioligand binding", "test system": "CHO membranes", "scale": "reference: Ki µ over Ki κ", "quantity": "selectivity ratio", "value": 4.32}
{"SMILES": "CN1CCN(c2cc(-c3ccncc3)c(-c3ccc4ccccc4c3)nn2)CC1", "test": "antagonist, FLIPR", "conditions": "10 µM", "quantity": "inhibition", "value": "10.5%"}
